{"data": "Measured values collected from several papers", "note": "Each numbered part is a random draw from the data of one study; scales do not carry over between parts. Positions count from the first letter of the parent shown."}
{"data": "Block 1", "target": "CCNB3, cyclin fold, Cln2 fusion (human)", "method": "yeast growth competition, sequencing", "matrix": "yeast", "notes": "weak parent motif", "baseline": "not given", "reading": "higher = stronger binding", "starting sequence": "ORC1 docking peptide (human); PRARKRLELGNLG"}
{"Variant": "P1R", "normalised enrichment score": 0.219}
{"Variant": "E8F", "normalised enrichment score": 0.331}
{"Variant": "G13E", "normalised enrichment score": 0.469}
{"Variant": "L9S", "normalised enrichment score": 0.416}
{"Variant": "R2V", "normalised enrichment score": 0.193}
{"Variant": "R6L", "normalised enrichment score": 0.425}
{"Variant": "L9H", "normalised enrichment score": -0.102}
{"Variant": "R2S", "normalised enrichment score": 0.102}
{"data": "Block 2", "target": "Sal-like protein 4, full length isoform B (SALL4, Homo sapiens, UniProt Q9UJQ4-2, residues 1-616)", "method": "universal PBM", "molecule type": "double-stranded DNA, one strand shown", "matrix": "in vitro", "concentration": "not given", "notes": "8-mer, flanks averaged, mean of replicates", "reading": "higher = stronger binding", "Construct (chain)": "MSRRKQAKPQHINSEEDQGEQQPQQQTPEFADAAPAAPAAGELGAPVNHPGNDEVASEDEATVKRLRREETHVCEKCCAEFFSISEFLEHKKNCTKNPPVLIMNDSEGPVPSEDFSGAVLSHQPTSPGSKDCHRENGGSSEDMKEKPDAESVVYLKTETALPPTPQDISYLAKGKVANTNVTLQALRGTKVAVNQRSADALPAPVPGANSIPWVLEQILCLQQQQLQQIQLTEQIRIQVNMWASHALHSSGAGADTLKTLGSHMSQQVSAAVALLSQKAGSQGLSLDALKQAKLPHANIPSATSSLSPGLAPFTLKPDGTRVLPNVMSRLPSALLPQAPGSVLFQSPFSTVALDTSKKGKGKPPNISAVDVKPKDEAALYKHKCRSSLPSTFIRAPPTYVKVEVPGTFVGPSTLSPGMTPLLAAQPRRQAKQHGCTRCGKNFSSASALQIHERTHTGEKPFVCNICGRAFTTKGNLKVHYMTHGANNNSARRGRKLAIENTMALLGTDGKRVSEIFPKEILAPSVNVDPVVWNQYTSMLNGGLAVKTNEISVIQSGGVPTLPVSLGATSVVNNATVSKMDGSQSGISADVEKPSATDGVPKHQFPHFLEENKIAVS"}
{"Oligonucleotide": "ACACCACC", "E-score": -0.183}
{"Oligonucleotide": "ACGTGCAC", "E-score": -0.0299}
{"Oligonucleotide": "GCGACGCC", "E-score": -0.288}
{"Oligonucleotide": "CTGGGTAC", "E-score": -0.279}
{"Oligonucleotide": "AAGGGCGC", "E-score": -0.177}
{"Oligonucleotide": "CACAGTAG", "E-score": 0.0504}
{"Oligonucleotide": "CAAACCGA", "E-score": -0.105}
{"Oligonucleotide": "CCCGCCGA", "E-score": -0.333}
{"Oligonucleotide": "CCTCCATC", "E-score": -0.243}
{"Oligonucleotide": "AGACTTGG", "E-score": -0.121}
{"data": "Block 3", "target": "RING finger protein unkempt homolog, zinc fingers 1-6, GST-SBP tag (UNK, Homo sapiens, UniProt Q9C0B0, residues 30-357)", "method": "RNA Bind-n-Seq", "molecule type": "RNA", "matrix": "in vitro", "concentration": "not given", "notes": "RNA with constant flanks, human and mouse sites, ends assumed", "baseline": "input RNA pool", "reading": "higher = stronger binding", "constant ends, left off below": "GGGAGUUCUACAGUCCGACGAUC … CAACAGAGGAUUGAGCAUCA", "UniProt Q9C0B0, sequence (30-357, looked up)": "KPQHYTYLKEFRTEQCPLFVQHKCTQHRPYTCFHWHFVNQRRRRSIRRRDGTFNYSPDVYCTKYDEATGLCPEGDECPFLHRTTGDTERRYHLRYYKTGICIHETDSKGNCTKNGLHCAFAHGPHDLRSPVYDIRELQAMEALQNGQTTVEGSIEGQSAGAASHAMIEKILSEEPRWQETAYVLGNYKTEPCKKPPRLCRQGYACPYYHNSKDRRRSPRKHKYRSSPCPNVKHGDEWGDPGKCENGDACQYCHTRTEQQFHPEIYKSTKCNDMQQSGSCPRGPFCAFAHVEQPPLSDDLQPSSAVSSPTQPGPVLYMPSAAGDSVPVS"}
{"Oligonucleotide": "UGAGCCCCGAGCCCGGCGCGGUCCCCGCAAGAUGGACGGUUUCGCCGGCAGCCUCGAUGAUAGUAUUUCUGCUGCAAGUACCUCUGACGUUCAAGACCGCCUCUCAGCUCUUGAGUCACG", "bound/input enrichment": "0.442 ratio"}
{"Oligonucleotide": "UCGAGGCUAGACCAUCAUGGGACAGACACACAGAGACACUUUGCCACAUCUGAUACAGCUGUGAACAAGCUUCUGCCCCAAGUUCUUCAGGGCAGCUGUGAAACCAGCUGGACAAGGGAA", "bound/input enrichment": "0.135 ratio"}
{"Oligonucleotide": "AUAAAAUAAAAAUAAAAUAAAACAGAAAUAUUACUCUUCCAUAUUCCUUCUGGCUAUAUUUAGUAAUUAAUUUAUUUUAUGGUAAAGUUCUAAUGACAUGUAAAUUGUUUCAGCAAAGCU", "bound/input enrichment": "1.37 ratio"}
{"Oligonucleotide": "AUGGGUGGAUUAUUUUCUCGAUGGAGGGCAAAACCUUCAACAGUAGAAGUUCUAGAAAAUAUAGAUAAGGAAAUUCAAGCAUUGGAAGAAUUUAGAGAAAAAAAUCAGAGAUUGCAAAAA", "bound/input enrichment": "7.58 ratio"}
{"Oligonucleotide": "CAGGGUCUUUAUUCCUCAUCUGCCGGAAGUGGGAAAUGCAUAGUAGAGGUUACAAUGGACAGAAAUUGUCUCGAGGUUCUUCCAACUAAAAUGUCUUAUGCUGCCAAUCUAAAAAAUGUA", "bound/input enrichment": "0.238 ratio"}
{"Oligonucleotide": "CACGGGGGACACGGAUGGCUAGUGGGGCGCAGGGGCCUUUUGGGUUGAGACCGCGACGGUCGCGGCCACUGUUGAGGCGGAGACUUCGGAUCGCUGCCGCCUCCACCACCCCCAGUGUCC", "bound/input enrichment": "0.254 ratio"}
{"Oligonucleotide": "GAAUUUUGUGCAUUUUCUCAGACAUUGCAACCUCAGAACAGGGAUGCUUUUUUCAAAACCUUAGCAAAAUUGGGAAUUCUUCCAGCUCUUGAAAUUGUAAUGGGCAUGGAUGACUUGCAA", "bound/input enrichment": "0.295 ratio"}
{"Oligonucleotide": "GCUCUUGUGGAGGUACAUUUCCUAAGCCGGAACACUCAAGCUUUUUUCAGGGUGUUUGGCUCUUGCAGCAAAACAAUUGAGAUGCUAACAGGGAGGAUUACAGUGUUUACAGAACAACCU", "bound/input enrichment": "0.222 ratio"}
{"Oligonucleotide": "ACUUUUAAUUUUGCAAAGAAUCCAGGACAAAAAGGAUUAGAUCUAGAAAUGGCCAUUGCUUACUGGAACUUAGUGCUUAAUGGAAGAUUUAAAUUCUUAGACUUAUGGAAUAAAUUUUUG", "bound/input enrichment": "2.64 ratio"}
{"Oligonucleotide": "UAUAAUAAUCAUGAAAUUCGUUCUGGAAAACAUAUUGGUGUCUGCAUCUCAGUUGCCAACAAUAGGCUUUUUGUGGGCUCUAUUCCUAAGAGUAAAACCAAGGAACAGAUUCUUGAAGAA", "bound/input enrichment": "1.25 ratio"}
{"data": "Mixed results"}
{"Molecule": "PhoQ, residues 284 288 289 292 302 303 SSLVEF", "target": "PhoP, residues 12 14 15 18 19 NQAHL (Escherichia coli, UniProt P23836)", "test": "Sort-seq, refers to: YFP reporter", "test system": "E. coli", "conditions": "PhoQ-PhoP variant library, together with: 10 µM Mg2+", "how to read": "baseline: high Mg2+ state, higher = stronger signaling", "quantity": "fold induction", "result": 1.76}
